Results of several laboratories.
Protocols differ between the studies behind these lines. ± marks the error that the study gave.
B1: CASP9 CARD domain (Homo sapiens, UniProt P55211); chain MDEADRRLLRRCRLRLVEELQVDQLWDALLSRELFRPHMIEDIQRAGSGSRRDQARQLIIDLETRGSQALPLFISCLEDTGQDMLASFLRTNRQAAKLS

With `colistin` the MIC was 1 mg/L (Pseudomonas aeruginosa; broth microdilution; clinical isolate RKI-No_221/16).
`EKPIDSETKM` — result for “normalised SPR binding response”: 0 normalised RU (human MAGI1-3/6 PDZ construct (MBP fusion); surface plasmon resonance; peptide; concentration not given; higher = stronger binding).
For `human insulin`, the Tmax was 3.78 ± 0.4 h (ELISA; pig, anaesthetized, serum; subcutaneous, 20 IU).
`insulin icodec`: “intact drug excreted in urine” < 1% (LOCI immunoassay; human, renal impairment trial, urine; subcutaneous; baseline: dose).
`ACEEQNPWARYLEWLFPTETLLLEL` — result for “mean fluorescence intensity”: 217 ± 21.8 a.u. (ex vivo fluorescence imaging; peptide, BALB/c mice, 4T1 tumour-bearing, liver; intravenous, 5 nmol, 24 h post-injection; higher = more uptake).
With `insulin aspart` the AUC(0-t) was 0.669 nM·h (ELISA; human, younger adults with type 1 diabetes, serum; subcutaneous, 0.2 U/kg).
`CAMK2A C280S/C289S (Homo sapiens)` gave a pKa of 7.1 (chemical modification, mass spectrometry, measured: Cys6; 37 °C, apparent, reduced thiol).
For `glucagon`, the thermodynamic solubility was 92.1 µM (shake-flask HPLC; 10 mM PBS; 2 h, pH 7.2).
`Peginesatide` gave a phosphorylation level of 2.9 fold (UT7/EPO; tyrosine phosphorylation, LC-MS/MS phosphoproteomics, GluC, measured: PIK3R1 tyrosine 607; 10 nM, 15 min, added: 10 U/mL EPO; baseline: vehicle).
For `insulin degludec`, the AUClast was 0.609 ± 0.074 µg·h/mL (human; subcutaneous, 0.4 IU/kg, 3 FC level, single dose, reference formulation).
For `Ubiquitin fragment (Homo sapiens)`, the pKa was 11 (NMR, measured: Lys63).
The retention time of `Neuropeptide Y` is reported as 17.2 min (RP-HPLC; HALO C18 column; 25 µM, acetic acid/methanol, 25 min gradient).
`pegcetacoplan`: “number of TEAEs” 3 (measured: renal and urinary disorders; patients with PNH; dose not given, phase Ib trial).
`adrenomedullin` gave a retention time of 11.6 min (RP-HPLC; HALO RP-amide column; 25 µM, acetic acid/methanol, 25 min gradient).
With `GSGAGSETKM` the binding intensity was 0.0724 (human SCRIB PDZ3-4 tandem (MBP fusion); automated holdup; peptide, crude extract; concentration not given, uncorrected, unit not given; baseline: biotin control resin, higher = stronger binding).
`insulin icodec` — result for “Tmax at steady state”: 18 h (Chinese type 2 diabetes patients, serum; subcutaneous, once-weekly median).
`YEQDPWGVKWWY`: “serum blood urea nitrogen” “no effect” (peptide, mouse, CP model, serum; 0.154 µmol/kg, 4 weeks).
With `ACDDQNPWRAYLDLLFPTDTLLLDLLW` the contrast index was 5.6 ± 0.4 (ex vivo fluorescence imaging; peptide, BALB/c mice, 4T1 tumour-bearing; intravenous, 5 nmol, 2 h post-injection, background-corrected mean fluorescence; baseline: tumour over muscle).
For `insulin aspart`, “time to early 50 % Cmax” read 25.4 min (ELISA, measured: total insulin aspart; human, type 1 diabetes, serum; subcutaneous, dose not given, least squares mean, single dose).
`ACEQNPIYWARYADWLFTTPLLLLDLALLVDADEGT` — result for “mean fluorescence intensity”: 1240 ± 182 a.u. (ex vivo fluorescence imaging; peptide, BALB/c mice, 4T1 tumour-bearing, kidney; intravenous, 5 nmol, 2 h post-injection; higher = more uptake).
The pKa of `B1 (CASP9 CARD domain)` is reported as 6.03 (NMR, measured: His38).

Repeated from above:
`insulin icodec`: “intact drug excreted in urine” < 1% (LOCI immunoassay; human, renal impairment trial, urine; subcutaneous; baseline: dose).
